Measurements collected from several papers.
Numbered parts are unrelated; each lists some results of a single study.

Block 1 — technique: RNA Bind-n-Seq; molecule type: RNA; sample: in vitro; tested at: 365 nM; reference: no-protein control; direction: higher = stronger binding
Target: RNA binding protein fox-1 homolog 2, RRM domain, GST-SBP tag (RBFOX2, Homo sapiens, UniProt O43251-10, residues 100-194)
Notes: natural RNA segment, single round, ends assumed
Shared flanks, not repeated: GGGAGUUCUACAGUCCGACGAUC … UGGAAUUCUCGGGUGCCAA
Construct (chain): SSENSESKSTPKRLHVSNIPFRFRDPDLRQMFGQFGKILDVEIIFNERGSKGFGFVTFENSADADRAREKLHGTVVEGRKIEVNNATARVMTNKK
Sequence | RBNS enrichment (R)
GCUUUUUAAGAACUACUUUAAUUGAAAGAUAAGAACUUUGCUAUCUUAUGCAGUGUAGUGUUCCCUUUCUGAAGACCUCAUUGUAAGACAGCUUUAUGUGCAUAGUGCUC | 0.442
GUUGGACCAAGGAGAAAGCCCUUUGGAGAAACUGGACCCUAGUUCAGUUUAGAUCUCAAAUAUAGGCUGAAAUCUCUUACCAAAGUGCGUUCCAGAUAAAAAUGAGACUU | 0.337
CCUGCAUGGCUACACACCUGGCUCAGUGCCUCCUCCAGAUCCCCUCCUGAGGCUGCCCCAAGGCCUACGGGUUAAAGCCAAUAGCUGCUCACAUGCAACAACGGAAGGAG | 1.83
UGUAACACUAAAGUAGGUGGUUCGUGUGUGUUCUCAUUACCUGGUUAUGAUAGAUAUGCACAUCAAAGCCUUUACCAGUAUCUUCCUGUAUUCCGUAUCAGAUUGCAAAG | 0.322
CUCCCGCCUACCCCGUCGGCAUUUUCUUCUUCCACCAGCUUUUACUGAACUUUUUGGCACUGCUUUGGAUUGGGGUCAAUUGCAGUCCACGUAACUGGCUGCAGAGAAAU | 0.552
AUCAAUAGGCUUAAUGAAAGAGGUCUUUCUUGCUUUGGCUGAGAGCAGCCUCUUUUUAAAGUGUGAUGUUUUGCCUUUCCACCUAAAGACCAGGAGAGAAUUUGGGCCCU | 0.224
UGAUGUUUUUGAAGCAUCCUAAGUACAGUAGAGUAGAAAACUGAUUUCUUUGUUAAUUGUACACUGAAUAAUGCCUUUUAAAAAUCAAAAUAAAAUUAACAAAUAAUGGU | 0.404
ACCGCGUGUGUUGCCCCUGCCCUGGGCUCCCCGCCAUGACAUCUUCACCUUGCAGCUUGUGCUGAGACUGACCCAAGUGCAGCUAGCACUGGGACACAGAUCCUUGUCUU | 0.407
UCAUCCUCUGGUAGGGCUGCCAGAAGGCCCCCAGCUCCUACCCACUCCCCUUGAGGCUGCUGCCUGCUUGGCCAGCCUCUGUCCAGAAAGGACCAGAGAAAGCCAGGCUG | 0.536
UUGAGGGUAGAAUUUAGCGUUUGGUUUUUACCUCCUAGCAUAUGCUGUUUGGUAUGUGAGGGUUUCAGUACAAAUGCUGCUGUCUAUUUCUGUGCACUUAACAAUGGAAC | 1.44
UCUAAGUCCAGGACCUCUACCCUGAGGACUCAGCCCUUAGCUCUGGAGAAGGAACAUAUUUGAUAGAUUUUUCUUAACAAGUUAAAAAAUGCAGCUCCUUUCUGUGCUGG | 0.342
UAACCUUGUAGCAUGUGAAGAAUGUCUGUACCUUGAUACGAUAGUUACAUAAUCAGUAUAUUUGGUUUCUAGAUCACUGUGCUUAUUUUGUUUCAAUCUCUGACUAAAAA | 4.76

Block 2 — technique: protein-binding microarray; molecule type: double-stranded DNA, one strand shown; sample: in vitro; tested at: not given; direction: higher = stronger binding
Target: Transcription factor Sp1 (SP1, Homo sapiens, UniProt P08047, residues 1-785, full length assumed)
UniProt P08047, sequence (whole entry, looked up): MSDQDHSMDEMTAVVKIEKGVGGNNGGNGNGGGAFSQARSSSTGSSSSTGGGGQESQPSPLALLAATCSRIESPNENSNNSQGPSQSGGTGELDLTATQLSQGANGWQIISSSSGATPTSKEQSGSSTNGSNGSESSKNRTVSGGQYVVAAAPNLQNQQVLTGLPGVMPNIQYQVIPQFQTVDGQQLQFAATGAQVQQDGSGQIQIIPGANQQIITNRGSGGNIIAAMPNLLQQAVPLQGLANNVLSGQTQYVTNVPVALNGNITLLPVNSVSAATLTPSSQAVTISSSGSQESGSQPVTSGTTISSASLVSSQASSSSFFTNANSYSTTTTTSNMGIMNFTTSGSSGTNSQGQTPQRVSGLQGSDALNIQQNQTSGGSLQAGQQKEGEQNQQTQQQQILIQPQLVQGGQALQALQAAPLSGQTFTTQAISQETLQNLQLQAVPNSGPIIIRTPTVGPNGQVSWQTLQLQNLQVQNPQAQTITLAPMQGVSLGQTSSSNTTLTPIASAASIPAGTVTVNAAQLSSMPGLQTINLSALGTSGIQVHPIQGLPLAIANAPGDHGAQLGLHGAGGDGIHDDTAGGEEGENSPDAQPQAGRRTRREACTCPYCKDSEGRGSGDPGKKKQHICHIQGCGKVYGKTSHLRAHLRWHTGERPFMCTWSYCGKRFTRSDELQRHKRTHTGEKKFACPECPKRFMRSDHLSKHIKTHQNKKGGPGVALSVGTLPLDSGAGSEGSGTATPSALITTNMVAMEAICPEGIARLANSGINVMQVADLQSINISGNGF
Notes: k-mer, scored over probes, only values ≥0.25
Sequence | E-score
GCCCCACC | 0.416
CACTCCCC | 0.396
ATGCAACA | 0.25
CGCCCATC | 0.354
ATACAATA | 0.265
GGGTAAAC | 0.256
GACCCCAC | 0.252
GGGATGTA | 0.252
ACACCCCC | 0.334
CTATATAC | 0.28
ATCCCCTC | 0.278
ATACAACA | 0.268
CATATACA | 0.282
CCCTTATA | 0.251
AGTGGGTG | 0.354
ACGGGGCG | 0.365
ACCCCATC | 0.311
GTTTGGTA | 0.296
AGGGTGGG | 0.456
AAGTGGGC | 0.303
ACACTTTA | 0.255
CAACACCC | 0.281
CCCCGCCG | 0.332
CGCCCCCC | 0.439
GTATCATA | 0.266

Block 3 — technique: RNA Bind-n-Seq; molecule type: RNA; sample: in vitro; tested at: 100 nM; reference: input RNA pool; direction: higher = stronger binding
Target: RING finger protein unkempt homolog, zinc fingers 1-6, SBP tag (UNK, Homo sapiens, UniProt Q9C0B0, residues 30-357)
UniProt Q9C0B0, sequence (30-357, looked up): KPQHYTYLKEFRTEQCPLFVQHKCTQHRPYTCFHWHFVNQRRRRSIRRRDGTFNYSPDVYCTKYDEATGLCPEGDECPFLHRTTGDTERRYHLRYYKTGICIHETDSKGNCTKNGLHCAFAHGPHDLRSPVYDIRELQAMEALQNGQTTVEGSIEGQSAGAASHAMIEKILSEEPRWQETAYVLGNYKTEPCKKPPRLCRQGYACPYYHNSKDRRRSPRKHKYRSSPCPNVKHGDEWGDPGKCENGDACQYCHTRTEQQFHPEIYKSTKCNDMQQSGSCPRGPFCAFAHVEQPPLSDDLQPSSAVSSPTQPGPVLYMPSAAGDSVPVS
Notes: RNA with constant flanks, vertebrate orthologous sites, ends assumed
Shared flanks, not repeated: GGGAGUUCUACAGUCCGACGAUC … CAACAGAGGAUUGAGCAUCA
Sequence | bound/input enrichment [ratio]
GUCUAGGUAGGGGUAACCAUUAACUUAUUUUAUAAGGAAAUGAAAUGCUGAAAAUCACAUUAGUGCCAAGUUUAGCUGGAGAACAUGAGCCCCUUUUAGGUGAUUCUCAAGUGGAACUCC | 0.469
GUGUCCCUCCCGCGGUGACGUCCUUUCUUACUGUCCCCGGCCAGGGCUGAGGGCCUGCAUUAGAAACAUUUUUUAAAUUGUCGUACAGGAAGAGAUGUGUCUAGCACAGCGUCUCAAAGC | 0.961
AAAUUUAUUUCAUGCCCUGGACUCCAUAUCGUACUGAUACUUUAAUAGAAUAUGCUUCUUUAGAAGAUUUCCAAAACAGUCGCCAAACAACAACAUACAAACUUCCAAAUCGCGUAGAUG | 1.33
UAUCUUUAGGAUGAAGCUCUUACAUCAGGUGUCACGAGUCUGGAGAACAGAUGGGUUGACUAGUUGUGUUUAUAAAUUACUCUCUGUGGAUUACAAUCCUUUAUAUAUCAACAUCACAGU | 0.544
GCAUGUCCAGUCACUGUGGUAUUCAAAAUACCCACAGUUCUCACUUGUUCCAAAUGAUCCUAAUAAUUGCCUAGAAAUGUCUUUCUCUUACCUGUUAUUUAUCAAUUUUUCCCAGUAUUU | 1.19
ACAUAAACUGGUAUUUUCGAACAAUAGGAAACUAUUUUUUCUCCUUUUUUUACAGUUUUAGUACGUAUCUGGCUUGUAUGUGGAAGACUAAAAAGUUGAUUUGCUAAAUGUGGUCUUUGC | 0.416
AUCCCUGAGUGACAGUAUGCCAUCUGUAGCGGAUUCGCACUCUAGUCAUUUUUCUGAAUUUAGUUGUUCUGACCUAGAAAGCAUGAAAACUUCUUGUAGUCAUGGUUCCAAUGAUUAUCA | 0.579
GUGCAAGGAGAUUAUUCCAACUAGUGAAUUUAUUAACAGUAAGUUGACAGCAAAAGCAAAUAGGCAGCUUCAAGAUCCUUUAGUAAUCAUGACAGGAAACAUCCCAACAUGGCUUACUGA | 0.79
CUCUCUCCUAGGUUGGAGCUAGUGGGAAAGUCAUAGGAAUUGAUCACAUUAAGGAGUUAGUAGAUGACUCAAUAAAUAACGUCAGAAAGGACGACCCAGUACUUCUGUCUUCAGGGAGAG | 0.36
UUCAGGCACAACUGACUGGUUCACAGCUUCCCUUACAUAGUUAUCUAUCAAGUGCAAGUAUUGGUAAUUUUCAGGAAACAUCCAGGCAGUCAUCUUUAUCCUGUAGCUCAAUUCGAGAUU | 0.913
CCAUUCUUACUGUCCCUGGCCAGGGCCGAGGACCUCAGCUGUUUCACUGAGGACCUGCAUCUAAAACAUAUUUUUAAAUUGUUACACAGGAAGAGAUGUGACUAAAGCACCAUCUCAAAG | 0.416

Block 4 — technique: protein-binding microarray; molecule type: double-stranded DNA, one strand shown; sample: in vitro; tested at: 940 nM top; notes: 60-bp whole probe; added: salmon DNA 0.4 mg/ml; reference: random background probes; direction: higher = stronger binding; shared flanks, not repeated: GCCTAGCAC … GTCTTGATTCGCTTGACGCTGCTG
Target: Interferon regulatory factor 5, full length, phosphomimetic (IRF5, Homo sapiens, UniProt Q13568-2, residues 1-514, S451D/S453D/S456D/S462D)
Sequence | fitted relative affinity
AATGTATAACGCCATTAGCTGTGCTAG | -0.302 z-score
TTAGGTATCGACACTGGATTAGTGCTA | 5.3 z-score
CAACATCTGCAAGATCCACAAGTGCTA | -0.299 z-score
TTAGGTATACTACTGCTTTAGTGCTAG | -0.477 z-score
TCATTTTTGCTTTCCTTACTGTGCTAG | 2.09 z-score
TCAGGTATCGACTATCGGTTAGTGCTA | 5.12 z-score
TCATTTTTGCAAGCTAAAACTGTGCTA | -0.281 z-score
GACGGACTGCTTCTCCTAACGTGCTAG | -0.229 z-score
TCAGCATACCATATCAGACTGTGCTAG | -0.0819 z-score
TTAGATCTCATTCTCGATTAGTGCTAG | 3.01 z-score
GACGGTTTCGGGTATCGGGTCGTGCTA | 10.7 z-score
GACGGTCTCGGTTTCAGGACGTGCTAG | 4.63 z-score
TTAGCTTTCAGTTCCGATTAGTGCTAG | 2.55 z-score
GACGGACTGGACTTTCGAGACGTGCTA | 0.0527 z-score
TCAGGTTTCGGTTCCGGTTAGTGCTAG | 13.4 z-score
GGTCTTTCTGTTTTCTCCATGTGCTAG | 2.83 z-score

Some of these lines once more (block 4):
Sequence | fitted relative affinity
GACGGACTGGACTTTCGAGACGTGCTA | 0.0527 z-score
TTAGGTATCGACACTGGATTAGTGCTA | 5.3 z-score
TCAGGTTTCGGTTCCGGTTAGTGCTAG | 13.4 z-score
TCATTTTTGCTTTCCTTACTGTGCTAG | 2.09 z-score
